Experimental data gathered from unrelated publications.
Each numbered part is a random draw from the data of one study; scales do not carry over between parts.

Series 1
Target: Replicase polyprotein 1ab, main protease (rep, Severe acute respiratory syndrome coronavirus 2, UniProt P0DTD1)
Read-out: enzyme activity
Action: inhibitor
Concentration: 20 µM
Setting: hit confirmation, no DTT
| SMILES | inhibition |
| --- | --- |
| Oc1cccc(-c2c3nc(c(-c4cccc(O)c4)c4ccc([nH]4)c(-c4cccc(O)c4)c4nc(c(-c5cccc(O)c5)c5ccc2[nH]5)CC4)C=C3)c1 | 77.8% |
| CC(C)(C)c1ccc(S(=O)(=O)/C=C/C#N)cc1 | 98.9% |
| CCn1c(-c2nonc2N)nc2cnc(Oc3cccc(NC(=O)c4ccc(OCCN5CCOCC5)cc4)c3)cc21 | 60.4% |

Series 2
Target: RNA binding protein fox-1 homolog 2, RRM domain, GST-SBP tag (RBFOX2, Homo sapiens, UniProt O43251-10, residues 100-194)
Technique: RNA Bind-n-Seq
Form: RNA
Medium: in vitro
Concentration: 365 nM
Setting: natural RNA segment, single round, ends assumed
Baseline: no-protein control
Direction: higher = stronger binding
Construct (chain): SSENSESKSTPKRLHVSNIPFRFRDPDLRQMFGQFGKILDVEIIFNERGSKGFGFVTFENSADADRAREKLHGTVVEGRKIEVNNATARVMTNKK
| Strand | RBNS enrichment (R) |
| --- | --- |
| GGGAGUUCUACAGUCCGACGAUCGCUCUAUAUUUGCAUGGUGCUGCGUGGCGGAGGACCCCUCUGAAUCCUGAAACCCCUCUUGCCUCUCUUCCACGGAAGAGGGCCUGGGCCCCGUGGAGCCUCAGUGCCCGUGGAAUUCUCGGGUGCCAA | 7.93 |
| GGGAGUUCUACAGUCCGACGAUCUGAAAUUCAAAUUCUCGUUUAGAAGUGAAAGCUGUCAGGUUGAUAGCAAGCAUGCACAUCAAAUUCACCAGAAGUACAACCCAUCGGCGCAGUCAGAGGAUGGAGUCUGAUGGAAUUCUCGGGUGCCAA | 27.4 |
| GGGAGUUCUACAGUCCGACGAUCUAACAUAUUUCGAAAGUAAGGUUAGCUCUAUAAAUAAUUUAGAGAGGUGAGAGUAUUUAUUUUUGGUAUGGCUGGCUCACUGCACAGACUCUGUGUUUAUGUGUGUGUGUUGGAAUUCUCGGGUGCCAA | 0.568 |
| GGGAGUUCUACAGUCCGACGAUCCCCGCCGGGAAGCAGCCCCGGCUCCUGAAUCACCCUCGCUCCGUCAGGCGGGACUCGUGUCCCAGAGAGGAAGGGGCUGCUGAGGUCUGAUGGGGCCCUUCCUCCGGGUGUGGAAUUCUCGGGUGCCAA | 0.404 |
| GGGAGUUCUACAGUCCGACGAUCCUGUUGUUUAGCUUACCUUUCUGCUAGGAUUGGCUUCCCGCAGAGGGCAGGGCCCAUCCUAAGCAGCUUCCAAGUCCCACAAAGGUGGCUUGUGGGAGGAUUUGGAAGGAUGGAAUUCUCGGGUGCCAA | 0.762 |
| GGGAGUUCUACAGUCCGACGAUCUAUCUCUUGGGACAACUUUUAAAAGCUAUUUUUACCAAGUAUUUUGUAAAUGCUAAUUUUUUAGGACUCUACUAGUUGGCAUACGAAAAUAUAUAAGGAUGGACAUUUUAUGGAAUUCUCGGGUGCCAA | 0.418 |
| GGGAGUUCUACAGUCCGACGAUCACAAGUAGAAUAGCCAAUUAUUUAAAUGUUUAGUUGCCACAGUGAACCAGGAGUCACUGAGCCAAUGACUUUACCAGCUGCUGACUAAUCUUCAUCACCACUGUAGAUUUUGGAAUUCUCGGGUGCCAA | 0.536 |
| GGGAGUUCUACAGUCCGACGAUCGGCUCUGGCUCCCUAACACCUGAAUCCCAGAUGAUGGGAAGUAUGUUUUCAAGUGUGGGGAGGAUAUGAAAAUGUUCUGUUCUCACUUUUGGCUUUAUGUCCAUUUUACCUGGAAUUCUCGGGUGCCAA | 0.228 |

Series 3
Target: Interferon regulatory factor 5, full length, phosphomimetic (IRF5, Homo sapiens, UniProt Q13568-2, residues 1-514, K96S/S451D/S453D/S456D/S462D)
Technique: protein-binding microarray
Form: double-stranded DNA, one strand shown
Medium: in vitro
Concentration: 250 nM
Setting: 60-bp whole probe
Added: salmon DNA 0.4 mg/ml
Baseline: random background probes
Direction: higher = stronger binding
Constant ends, left off below: GCCTAGCAC … GTCTTGATTCGCTTGACGCTGCTG
| Strand | log fluorescence [z-score] |
| --- | --- |
| CTGTACATCTATGTAGAAAGGTGCTAG | 0.234 |
| TTAGCTTTCGACACTGGGTTAGTGCTA | 7.38 |
| GACGATTTCGGGACTGGATACGTGCTA | 1.71 |
| GACGGTCTCCTATTGCTGACGTGCTAG | -0.215 |
| GACTGTTTCGGACTGGGGACGTGCTAG | 3.97 |
| TTAGAACTGGGTATCGATTAGTGCTAG | 3.99 |
| GACGAACTGGGGACTGTAGACGTGCTA | -0.566 |
| TCATATGTACTCTCTCCAACTGTGCTA | 0.334 |

Series 4
Target: Replicase polyprotein 1ab, nsp13 helicase (rep, Severe acute respiratory syndrome coronavirus 2, UniProt P0DTD1)
Action: inhibitor
Concentration: 20 µM
| Compound | inhibition [%] |
| --- | --- |
| Nc1nc(=O)n([C@H]2C[C@H](O)[C@@H](CO)O2)cc1F | 1.72 |
| O=C1CC[C@@](c2ccccc2)(C2CCN(Cc3ccc(I)cc3)CC2)C(=O)N1 | 4.47 |
| O=c1[nH]c(=O)n([C@H]2C[C@H](O)[C@@H](CO)O2)cc1C(F)(F)F | -1.05 |
| C[C@@H]1CN(Cc2ccc(F)cc2)CCN1C(=O)COc1ccc(Cl)cc1NC(N)=O | 5.6 |
| CCc1cc(O)c(Oc2ccc(C(N)=O)cc2F)cc1F | 4.14 |
| CN1c2c([nH]c(N)nc2=O)NC[C@@H]1CNc1ccc(C(=O)N[C@@H](CCC(=O)O)C(=O)O)cc1 | -3.07 |
| CNc1nc(C)nc(N[C@H]2CCC[C@@H](C(=O)NCc3ccc(C#N)cc3C(F)(F)F)C2)n1 | 3.58 |
| CCCCC1CCC(c2nc(-c3ccncc3)no2)CC1 (stereo not shown) | 0.42 |
| O=C(Nc1ccc(OC(F)(F)F)cc1)c1sccc1NCc1ccnc2ccccc12 | 6.98 |
| CCOC(=O)C1=C(C)NC(=S)NC1c1cccc(O)c1 (stereo not shown) | 8.81 |
| CCN(CC)C(=O)N1CCN(C)CC1 | 1.93 |
| CCCCc1ccc(C(N)=O)nc1 | 25.2 |
| CCCNC(C)C(=O)Nc1ccccc1C (stereo not shown) | 8.29 |
| CN1C(C(=O)Nc2ccccn2)=C(O)c2sc(Cl)cc2S1(=O)=O | 5.19 |
| [N-]=[N+]=CC(=O)CC[C@H](N)C(=O)O | -6.29 |
| Nc1nc(=O)n([C@@H]2O[C@H](CO)[C@@H](O)[C@@H]2F)cc1I | -1.01 |
| Cc1oc(=O)oc1CN1CCN(c2cc3c(cc2F)c(=O)c(C(=O)O)c2n3C(C)S2)CC1 (stereo not shown) | 1.95 |
| Cc1c(C(=O)N2CCOc3ccc(-c4ccc(N)nc4)cc3C2)ccc(S(C)(=O)=O)c1F | 4.42 |
| NCCS(=O)(=O)O | -8.29 |
| CC(C)C(=O)OC[C@@]1(N=[N+]=[N-])O[C@@H](n2ccc(N)nc2=O)[C@H](OC(=O)C(C)C)[C@@H]1OC(=O)C(C)C | 6.9 |
| Cc1ccc2cc(-c3c(C)ccc(C(=O)c4c(-c5ccccc5)n(C)n(-c5ccccc5)c4=O)c3N)ccc2n1 | -4.71 |
| O=C(Nc1cccnn1)N1CCC(=Cc2cccc(Oc3ccc(C(F)(F)F)cn3)c2)CC1 | 10.6 |
| CC(C)C[C@@H](C(=O)N[C@@H](Cc1ccc(OCc2ccccc2)cc1)C(=O)NC(C)(C)C)N(C)Cc1ccc(C(C)(C)C)cc1 | 1.92 |
| O=C(Nc1ccc(S(=O)(=O)C(F)(F)F)cc1)C1=CCN(c2ncccc2C(F)(F)F)CC1 | 26 |
| Cc1cccc2c1CC[C@H](CN1CCC(c3c(Cl)cccc3Cl)CC1)C[C@@H]2O | 0.68 |

Series 5
Target: Sal-like protein 4, full length isoform A (SALL4, Homo sapiens, UniProt Q9UJQ4, residues 1-1053)
UniProt Q9UJQ4, sequence (whole entry, looked up): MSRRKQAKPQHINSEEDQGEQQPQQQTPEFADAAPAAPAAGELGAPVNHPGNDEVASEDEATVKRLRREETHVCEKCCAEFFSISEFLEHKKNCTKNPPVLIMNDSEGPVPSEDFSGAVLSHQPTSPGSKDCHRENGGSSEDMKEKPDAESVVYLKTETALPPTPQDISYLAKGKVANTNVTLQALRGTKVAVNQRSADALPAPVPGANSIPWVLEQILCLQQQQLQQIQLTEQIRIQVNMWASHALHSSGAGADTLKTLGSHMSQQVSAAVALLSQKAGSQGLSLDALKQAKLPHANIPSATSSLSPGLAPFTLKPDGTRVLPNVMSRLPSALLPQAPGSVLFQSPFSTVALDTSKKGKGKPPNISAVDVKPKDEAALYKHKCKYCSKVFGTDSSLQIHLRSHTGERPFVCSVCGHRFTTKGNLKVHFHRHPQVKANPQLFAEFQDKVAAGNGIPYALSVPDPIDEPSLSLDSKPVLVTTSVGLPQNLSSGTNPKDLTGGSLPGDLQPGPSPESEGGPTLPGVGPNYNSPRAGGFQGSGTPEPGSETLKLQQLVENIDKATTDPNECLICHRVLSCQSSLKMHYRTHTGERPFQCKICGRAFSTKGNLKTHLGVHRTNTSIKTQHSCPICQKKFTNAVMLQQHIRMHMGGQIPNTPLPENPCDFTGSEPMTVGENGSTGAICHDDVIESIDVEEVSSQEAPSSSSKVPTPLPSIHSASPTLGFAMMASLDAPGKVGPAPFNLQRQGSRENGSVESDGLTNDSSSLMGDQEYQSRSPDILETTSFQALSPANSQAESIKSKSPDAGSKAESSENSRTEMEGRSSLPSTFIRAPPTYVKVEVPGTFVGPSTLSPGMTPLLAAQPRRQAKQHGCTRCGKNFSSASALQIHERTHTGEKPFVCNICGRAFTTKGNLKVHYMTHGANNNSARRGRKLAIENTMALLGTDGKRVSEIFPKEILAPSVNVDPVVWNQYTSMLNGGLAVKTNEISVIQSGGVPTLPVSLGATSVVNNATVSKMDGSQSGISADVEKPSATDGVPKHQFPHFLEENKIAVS
Technique: universal PBM
Form: double-stranded DNA, one strand shown
Medium: in vitro
Concentration: 600 nM
Setting: 8-mer, flanks averaged, mean of replicates
Direction: higher = stronger binding
| Strand | E-score |
| --- | --- |
| AGTCATGA | 0.0847 |
| CGAAACCC | -0.305 |
| AGCTCTAG | -0.0277 |
| AATTGGAA | 0.142 |
| ATTCGCCG | -0.141 |
| AGCTACAG | -0.118 |
| AAGCTCAC | -0.196 |
| ATGTTTCA | 0.253 |

For quick reference, copied from above (series 1):
| SMILES | inhibition |
| --- | --- |
| Oc1cccc(-c2c3nc(c(-c4cccc(O)c4)c4ccc([nH]4)c(-c4cccc(O)c4)c4nc(c(-c5cccc(O)c5)c5ccc2[nH]5)CC4)C=C3)c1 | 77.8% |
| CC(C)(C)c1ccc(S(=O)(=O)/C=C/C#N)cc1 | 98.9% |
| CCn1c(-c2nonc2N)nc2cnc(Oc3cccc(NC(=O)c4ccc(OCCN5CCOCC5)cc4)c3)cc21 | 60.4% |
